Experimental data pooled from the literature.
A part holds a random share of what one study measured. Substitutions count along the parent as printed.
Chain of UniProt P61075 (whole entry, looked up): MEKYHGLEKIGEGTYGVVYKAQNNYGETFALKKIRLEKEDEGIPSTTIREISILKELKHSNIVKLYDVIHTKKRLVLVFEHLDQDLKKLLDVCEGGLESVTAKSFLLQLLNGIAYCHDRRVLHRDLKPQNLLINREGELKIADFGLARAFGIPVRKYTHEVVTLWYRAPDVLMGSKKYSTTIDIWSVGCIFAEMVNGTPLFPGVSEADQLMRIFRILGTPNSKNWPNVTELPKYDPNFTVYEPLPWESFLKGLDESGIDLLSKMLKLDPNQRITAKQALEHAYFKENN

Block 1
Target: RING finger protein unkempt homolog, zinc fingers 1-6, GST-SBP tag (UNK, Homo sapiens, UniProt Q9C0B0, residues 30-357)
Technique: RNA Bind-n-Seq
Molecule type: RNA
Medium: in vitro
Concentration: not given
Notes: RNA with constant flanks, human and mouse sites, ends assumed
Baseline: input RNA pool
Direction: higher = stronger binding
Target sequence (chain): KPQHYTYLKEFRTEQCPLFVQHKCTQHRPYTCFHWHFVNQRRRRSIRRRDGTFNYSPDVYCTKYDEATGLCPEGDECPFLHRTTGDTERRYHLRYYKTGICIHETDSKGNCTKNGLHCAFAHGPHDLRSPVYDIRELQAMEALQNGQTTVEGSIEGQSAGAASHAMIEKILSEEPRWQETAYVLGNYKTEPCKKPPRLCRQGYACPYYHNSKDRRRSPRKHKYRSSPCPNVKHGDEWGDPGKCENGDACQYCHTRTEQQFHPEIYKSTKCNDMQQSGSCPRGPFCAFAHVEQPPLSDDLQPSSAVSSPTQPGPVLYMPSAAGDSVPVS
The bound/input enrichment of `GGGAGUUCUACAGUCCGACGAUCCAGGAAACCCAUAUUGAUUUUGUAAUUAAAUGUCAAGCCUGUGGAUUGUUUUGAGCUUGGUAGUUGAUGAGCAUUUCCGUACAGAGGCCUCACCUUGAGCACAGCACUGUCAGGAGGGCGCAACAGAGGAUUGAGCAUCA` is reported as 0.717 ratio.
`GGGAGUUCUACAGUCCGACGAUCGAAGACACAGAAGCAAAGAACCCAUUUUCUACUCAGGACACAGAUUUAGACUUGGAGAUGUUAGCUCCCUAUAUCCCAAUGGAUGAUGACUUCCAGUUACGUUCCUUCGAUCAGUUGUCACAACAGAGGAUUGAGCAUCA` gave a bound/input enrichment of 0.388 ratio.
With `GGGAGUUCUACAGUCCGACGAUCCGCAUUUUGAUGGUUGGAUUGGAUGCUGCUGGCAAGACGACAAUUCUGUAUAAACUGAAAUUAGGGGAAAUAGUCACCACCAUUCCUACCAUUGGUUUUAAUGUGGAAACAGUAGAAUAUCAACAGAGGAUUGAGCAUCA` the bound/input enrichment was 0.975 ratio.
For `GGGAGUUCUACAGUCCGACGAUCCUUCAUGUUUCUGAAAAUGUGAUAUUCACAGAUGUGAAUUCUAUACUUCGCUACUUGGCUAGAGUUGCAACUACAGCUGGGUUAUAUGGCUCUAAUCUGAUGGAACAUACUGAGAUUGAUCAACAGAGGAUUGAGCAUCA`, the bound/input enrichment was 0.0964 ratio.
`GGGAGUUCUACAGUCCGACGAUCGAAGACUUUGGCCAAGAAAAGAAAACUGAUGAUGUUGAAGCCAUGAGUUCUCAACCAGCACUGGCUCUGGAUGAAAGGAAAUUAGGAGAUGUUUCUCCCACACAAAUAGAUGUCAGUCAGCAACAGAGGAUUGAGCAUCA` has a bound/input enrichment of 0.215 ratio.
For `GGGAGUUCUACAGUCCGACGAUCACUUUUGAGUCCCCAUGAUUUUCUUCAUACUCUGGUUCCCUUUCUACAACACAACCAUUGUACUUACCAUCACAGUAAUAUACCAAGUGUCCUAGUUGCCUAUGAAGGUUUGCCACUUCACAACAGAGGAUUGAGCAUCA`, the bound/input enrichment was 0.24 ratio.
The bound/input enrichment of `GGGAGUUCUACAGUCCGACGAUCAUCAGCAUUGAGUGUGUGGAGUGCUGUGGCAGGAAUCUUUAUGUCGGCACCAAUGACUGCUUCAUUUACCAUUUCCUGCUGGAGGAGAAGGCCAUGCCUACAGGGACAGCUACAUUCGUUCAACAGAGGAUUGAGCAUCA` is reported as 0.293 ratio.
For `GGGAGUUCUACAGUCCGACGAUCGAACAUAAAGCUGAGAAAGUCCCAGCAGUAGCCAACUACAUUAUGAAAAUACACAAUUUUACUAGCAAAUGCCUCUACUGUAAUCGCUAUUUACCCACAGAUACUCUGCUCAACCAUAUGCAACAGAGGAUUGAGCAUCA`, the bound/input enrichment was 5.33 ratio.

Block 2
Target: CCNA1, cyclin fold, Cln2 fusion (human)
Technique: yeast growth competition, sequencing
Medium: yeast
Notes: weak parent motif
Baseline: not given
Direction: higher = stronger binding
Starting sequence: viral docking peptide; KKAKRRLFTISDS
For `R5A`, “normalised enrichment score” read 0.217.
For `T9A`, “normalised enrichment score” read 0.632.
`R5A L7A`: “normalised enrichment score” 0.0855.
Under “normalised enrichment score”, `S13A` is recorded as 0.557.
For `R6A`, “normalised enrichment score” read 0.522.
`R5K`: “normalised enrichment score” 0.262.
`R5K F8L` — result for “normalised enrichment score”: 0.44.
For `D12A`, “normalised enrichment score” read 0.264.
`S11A`: “normalised enrichment score” 0.493.

Mixed results
`Cc1cc(NC(=O)c2cccc(S(F)(F)(F)(F)F)c2)cc(-n2ccn3nc(-c4cccnc4)cc23)c1` has a remaining binding of 71.8% (CRK2 (Plasmodium falciparum, UniProt P61075); cell-free assay, competition with immobilised ligand; 1 µM).
`YARRYFYPL`: binding “active” (HLA class I histocompatibility antigen, B alpha chain, allele B*08:02 (Homo sapiens, UniProt P01889); peptide-MHC binding; peptide; concentration not given).

For quick reference, copied from above (block 1):
`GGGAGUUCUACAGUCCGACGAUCGAAGACACAGAAGCAAAGAACCCAUUUUCUACUCAGGACACAGAUUUAGACUUGGAGAUGUUAGCUCCCUAUAUCCCAAUGGAUGAUGACUUCCAGUUACGUUCCUUCGAUCAGUUGUCACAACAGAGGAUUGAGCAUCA` gave a bound/input enrichment of 0.388 ratio.
With `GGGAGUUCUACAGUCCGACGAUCCGCAUUUUGAUGGUUGGAUUGGAUGCUGCUGGCAAGACGACAAUUCUGUAUAAACUGAAAUUAGGGGAAAUAGUCACCACCAUUCCUACCAUUGGUUUUAAUGUGGAAACAGUAGAAUAUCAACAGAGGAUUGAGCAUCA` the bound/input enrichment was 0.975 ratio.
For `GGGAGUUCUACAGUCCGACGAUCGAACAUAAAGCUGAGAAAGUCCCAGCAGUAGCCAACUACAUUAUGAAAAUACACAAUUUUACUAGCAAAUGCCUCUACUGUAAUCGCUAUUUACCCACAGAUACUCUGCUCAACCAUAUGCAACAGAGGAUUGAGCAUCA`, the bound/input enrichment was 5.33 ratio.
